Earlier results, collected from citations in different studies.
Compare with care: the assays were run in different laboratories. ± marks the error that the study gave. In brackets after ≈: the same amount, converted by molar mass.

`Cc1cc2nc(-c3ccc(C(=O)NC4CCN(Cc5ccccc5)CC4)s3)[nH]c2cc1C` gave an IC50 of 770 nM (Plasmodium falciparum; whole cell extended time; 3D7; 72 h).
For `COc1ccccc1Oc1cccc(CN2CCC3(CC2)C(=O)NCN3CCc2ccccc2)c1`, the EC50 was 19 nM (human CCR8 G206A mutant (TM5); IP accumulation, agonist).
`C[C@H]1COCCN1c1nc(-c2cnc(N)cc2C(F)F)nc(N2CCOCC2)n1` gave a GI50 of 183 nM (BT-20).
For `CCNS(=O)(=O)c1ccc(OC)cc1C1(O)CCN(Cc2cccc(Oc3ccccc3OC)c2)CC1`, the EC50 was 31 nM (human CCR8 L168D mutant (TM4); IP accumulation, agonist).
The response of `O=C(Nc1nc2ccccc2[nH]1)c1ccccc1` is reported as 83% (SUMO/sentrin specific protease 8; 12.5 µM, PubChem AID 488912).
`Nc1cc(C(F)(F)F)c(-c2nc(N3CCOCC3)nc(N3CCOCC3)n2)cn1` has a GI50 of 1030 nM (44 tumour cell lines).
For `Cc1[nH]c(C)c(-c2ccc(S(=O)(=O)c3ccc(Cl)cc3)cc2)c(=O)c1Cl`, the IC50 was 140 nM (Plasmodium falciparum; whole cell extended time; 3D7; 72 h).
With `Cc1cc(NC(=O)c2cccc(NC(=O)/C=C/CN(C)C)c2)ccc1Nc1nccc(-c2cccnc2)n1` the remaining activity was 0% (JNK1; 1 µM; relative to: control).
The IC50 of `Cc1[nH]c(C)c([N+](=O)[O-])c(=O)c1-c1ccc(Oc2ccc(OC(F)(F)F)cc2)cc1` is reported as 250 nM (Plasmodium falciparum; whole cell extended time; 3D7; 72 h).
With `Nc1cccc2c1C(=O)N(C1CCC(=O)NC1=O)C2=O` (stereo not drawn) the IC50 was roughly 13 nM (TNF release; human whole blood; with: LPS).
`CC(C)n1cnc2c(Nc3cccc(Cl)c3)nc(NCCO)nc21` gave an inhibition of 63% (CSNK1D; kinase activity, inhibitor; concentration not given).
With `Cc1[nH]c2ccc(C#N)cc2c(=O)c1Br` the IC50 was 640 nM (Plasmodium falciparum; whole cell extended time; 3D7; 72 h).
`COc1ccccc1Oc1cccc(CN2CCC(NC(=O)C3CC(=O)Nc4ccccc43)CC2)c1` (stereo not drawn) has an EC50 of 30 nM (human CCR8 W194A mutant (TM5); IP accumulation, agonist).
With `CCCCCCCc1c(C)[nH]c2cc(OC)ccc2c1=O` the IC50 was 60 nM (Plasmodium falciparum; whole cell extended time; 3D7; 72 h).
For `CNC(C)C1CCC(N)C(OC2C(N)CC(N)C(OC3OCC(C)(O)C(NC)C3O)C2O)O1` (stereo not drawn), the MIC was 2 µg/mL (≈ 4.19 µM) (Acinetobacter baumannii; clinical isolate RKI-No_4/15).
`Cc1cc(=O)c(-c2ccc(Oc3cccc(OC(F)(F)F)c3)cc2)c(C)[nH]1` gave an IC50 of 200 nM (Plasmodium falciparum; whole cell extended time; 3D7; 72 h).
With `COC(=O)C1=C(C)NC(C)=C(C(=O)OC)C1c1c(C(F)(F)F)nc2sccn12` the EC50 was 860 nM (decrease in atrial rate; guinea pig right atrium).
The IC50 of `Cc1[nH]c(C)c(-c2ccc(CCc3ccc(F)cc3F)cc2)c(=O)c1Br` is reported as 10 nM (Plasmodium falciparum; whole cell extended time; 3D7; 72 h).
`COC(=O)C1=C(C)NC(C)=C(C(=O)OC)C1c1c(-c2ccc(OC)c(OC)c2)nc2sccn12` gave an EC50 of 2640 nM (negative inotropic effect; guinea pig, isolated left atrium).
The inhibition of `O=C1NC(=O)c2c1c1c3ccccc3[nH]c1n1cncc21` is reported as 32% (CSNK1G1; kinase activity, inhibitor; 0.5 µM).
`COC(=O)C1=C(C)NC(C)=C(C(=O)OC)C1c1c(Cl)nc2sc(C)cn12` has an IC50 of 2060 nM (calcium-induced contraction, relaxant; guinea pig ileum longitudinal muscle).
For `Cc1c(C#N)cccc1[C@@H](C)Nc1nnc(C)c2cnc(N3CCOCC3)cc12`, the IC50 was 65 ± 18.2 nM (LN-229; 3D cell viability; 14 d).
`CC1(C)S[C@@H]2[C@H](NC(=O)[C@H](N)c3ccccc3)C(=O)N2[C@H]1C(=O)O` has an MIC of greater than 16 µg/mL (Escherichia coli; clinical isolate RKI-No_513/16).
With `COc1ccccc1Oc1cccc(CN2CCC(O)(c3ccccc3C(=O)O)CC2)c1` the EC50 was 12 nM (human CCR8 K193A mutant (TM5); IP accumulation, agonist).
With `COC(=O)C1=C(C)NC(C)=C(C(=O)OC)C1c1c(-c2cccc(OC)c2)nc2sccn12` the EC50 was 1900 nM (negative inotropic effect; guinea pig, isolated left atrium).
Under “overall response rate”, `CCN(c1cc(-c2ccc(CN3CCOCC3)cc2)cc(C(=O)NCc2c(C)cc(C)[nH]c2=O)c1C)C1CCOCC1` is recorded as 11% (epithelioid sarcoma patients; dose not given).
`COC(=O)C1=C(C)NC(C)=C(C(=O)OC)C1c1c(-c2cc(OC)ccc2OC)nc2sc(C)cn12`: “decrease in developed tension” 78 ± 0.9% (guinea pig left atrium; 50 µM, paced at 1 Hz; relative to: control).
With `Cc1[nH]c(C)c(-c2ccc(-c3ccc(C(F)(F)F)cc3C(F)(F)F)nc2)c(=O)c1Br` the IC50 was 190 nM (Plasmodium falciparum; whole cell extended time; 3D7; 72 h).
`COC(=O)C1=C(C)NC(C)=C(C(=O)OC)C1c1c(-c2cccc(OC(F)(F)F)c2)nc2sccn12` — result for “decrease in developed tension”: 86 ± 0.7% (guinea pig left atrium; 50 µM, paced at 1 Hz; relative to: control).
For `COc1ccccc1Oc1cccc(CN2CCC(NC(=O)C(CCN3CCCC3)c3ccccc3)CC2)c1` (stereo not drawn), the EC50 was 4.7 nM (human CCR8 Y172A mutant (ECL2); IP accumulation, agonist).

For quick reference, copied from above:
`C[C@H]1COCCN1c1nc(-c2cnc(N)cc2C(F)F)nc(N2CCOCC2)n1` gave a GI50 of 183 nM (BT-20).
`COc1ccccc1Oc1cccc(CN2CCC(NC(=O)C3CC(=O)Nc4ccccc43)CC2)c1` (stereo not drawn) has an EC50 of 30 nM (human CCR8 W194A mutant (TM5); IP accumulation, agonist).
For `CNC(C)C1CCC(N)C(OC2C(N)CC(N)C(OC3OCC(C)(O)C(NC)C3O)C2O)O1` (stereo not drawn), the MIC was 2 µg/mL (≈ 4.19 µM) (Acinetobacter baumannii; clinical isolate RKI-No_4/15).
Under “overall response rate”, `CCN(c1cc(-c2ccc(CN3CCOCC3)cc2)cc(C(=O)NCc2c(C)cc(C)[nH]c2=O)c1C)C1CCOCC1` is recorded as 11% (epithelioid sarcoma patients; dose not given).
`COC(=O)C1=C(C)NC(C)=C(C(=O)OC)C1c1c(-c2cccc(OC(F)(F)F)c2)nc2sccn12` — result for “decrease in developed tension”: 86 ± 0.7% (guinea pig left atrium; 50 µM, paced at 1 Hz; relative to: control).
